Results from different studies.
Every numbered part comes from another study and shows a few of its results, in no order. Changes are numbered by the printed parent chain.

Series 1
Target: UBE2Q1 UBC core domain (UniProt Q7Z7E8)
Method: yeast two-hybrid
Sample: yeast
Setting: mostly zero background
Relative to: not given
Direction: higher = stronger interaction
B1: IRF2BPL RING domain (UniProt Q9H1B7); chain SPMANSGPLCCTICHERLEDTHFVQCPSVPSHKFCFPCSRESIKAQGATGEVYCPSGEKCPLVGSNVP
B2: TRIM69 RING domain (UniProt Q86WT6); chain VIQDITMELHCPLCNDWFRDPLMLSCGHNFCEACIQDFWRLQAKETFCPECKMLCQYNNCTF
B3: RC3H2 RING domain (UniProt Q9HBD1); chain QAAQWTEFLSCPICYNEFDENVHKPISLGCSHTVCKTCLNKLHRKACPFDQTAINTDIDVL
B4: TRIM63 RING domain (UniProt Q969Q1); chain PMENLEKQLICPICLEMFTKPVVILPCQHNLCRKCANDIFQAANPYWTSRGSSVSMSGGRFRCPTCRHEVIMDRHGV
B5: ARK2C RING domain (UniProt Q6ZSG1); chain EGEESDTDEKCTICLSMLEDGEDVRRLPCMHLFHQLCVDQWLAMSKKCPICRVDIETQLGAD
B6: RNF170 RING domain (UniProt Q96K19); chain TRQQFYTDMYCPICLHQASFPVETNCGHLFCGACIIAYWRYGSWLGAISCPICRQTVTLLLTVF
Target sequence (chain): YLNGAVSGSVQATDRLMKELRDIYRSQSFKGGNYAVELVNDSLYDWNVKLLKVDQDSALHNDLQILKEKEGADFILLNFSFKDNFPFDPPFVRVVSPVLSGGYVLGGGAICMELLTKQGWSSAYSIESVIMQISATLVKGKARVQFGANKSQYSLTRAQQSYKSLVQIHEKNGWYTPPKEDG
Molecule	lacZ reporter activity
B1 (IRF2BPL RING domain)	4720
FPEHFVKSISCQICEHILADPVETNCKHVFCRVCILRCLKVMGSYCPSCRYPCFPTDLES (RAG1 RING domain (UniProt P15918))	0
QLQDIKEQTMCPVCLDRLKNMIFLCGHGTCQLCGDRMSECPICRKAIERRILLY (MIB1 RING domain (UniProt Q86YT6))	0
B2 (TRIM69 RING domain)	0
QLRRLQEERTCKVCMDKEVSVVFIPCGHLVVCQECAPSLRKCPICRGIIKGTVRTF (BIRC2 RING domain (UniProt Q13490))	0
EDEVSDNSAECVVCLSDVRDTLILPCRHLCLCNTCADTLRYQANNCPICRLPFRALLQIR (RNF157 RING domain (UniProt Q96PX1))	0
YWAMDSTFELCKICAESNKDVKIEPCGHLLCSCCLAAWQHSDSQTCPFCRCEIKGWEAVS (CBLC RING domain (UniProt Q9ULV8))	0
B3 (RC3H2 RING domain)	0
B4 (TRIM63 RING domain)	0
VTLSLTLPITCHICLGKVRQPVICINNHVFCSICIDLWLKNNSQCPACRVPITPENPCK (OBI1 RING domain (UniProt Q5W0B1))	0
B5 (ARK2C RING domain)	0
B6 (RNF170 RING domain)	0
FASPPDSNFVCSVCHGVLKRPARLPCSHIFCKKCILRWLARQKTCPCCRKEVKRKKVVH (RNF151 RING domain (UniProt Q2KHN1))	0

Series 2
Target: RING finger protein unkempt homolog, zinc fingers 1-6, GST-SBP tag (UNK, Homo sapiens, UniProt Q9C0B0, residues 30-357)
Sequence of UniProt Q9C0B0 (30-357, looked up): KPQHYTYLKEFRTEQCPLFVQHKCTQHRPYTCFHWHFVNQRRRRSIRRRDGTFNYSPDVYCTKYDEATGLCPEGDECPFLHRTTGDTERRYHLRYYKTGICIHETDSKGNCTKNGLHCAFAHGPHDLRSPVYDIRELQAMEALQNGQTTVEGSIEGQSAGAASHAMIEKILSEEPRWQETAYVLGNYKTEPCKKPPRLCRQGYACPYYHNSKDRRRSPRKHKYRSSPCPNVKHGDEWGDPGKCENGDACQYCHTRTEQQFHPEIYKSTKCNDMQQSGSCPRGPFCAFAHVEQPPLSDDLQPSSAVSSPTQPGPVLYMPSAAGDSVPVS
Method: RNA Bind-n-Seq
Molecule type: RNA
Sample: in vitro
Concentration: not given
Setting: RNA with constant flanks, human-mouse chimeric sites, ends assumed
Relative to: input RNA pool
Direction: higher = stronger binding
Constant ends, left off below: GGGAGUUCUACAGUCCGACGAUC … CAACAGAGGAUUGAGCAUCA
Strand	bound/input enrichment
GAGUCGAUUAUGGAAACAACAAUUCGUUAUCUUGCAGCCUCAGUGUUCACUUGCUUGGCGAUAGCAUUGGGGUUUUAUAGGUUCUGGAAGGAGAACUGACGAUGAUGCUGCCGCUGCUGC	0.2 ratio
GAGUCGAGCAAACUUGAAACAAUUCGUUAUCUUGCAGCCUCAGUGUUCACUUGCUUGGCGAUAGCAUUGGGGUUUUAUAUAGAUUCUAAGGAGAACUGACGAUGAUGUCCUGCUGUGUGC	0.106 ratio
AUUGUUGAAGCGAAUCCACUUUUAGAAGCAUUUGGAAAUGCAAAGACUGUUCGCAACAAUAAUAGCAGUCGAUUUGGAAAAUUUGUAGAAAUACAUUUCAAUGAAAAGAGCUCAGUUGUU	0.155 ratio
UCUUAACUUAUUCAUUUAACUUAUUUUUAGCACUUAGUAAAUAUUGUUAGUCUUAGACAAUAGCUCACAUUUUUUGAGAAGCAUGCCCUCCCUGUCCAUUUGUCUUACAAUAACACUCAG	376 ratio
GCUCCUCCCCGCUCUGCCCCUGCCUGCCACUGGGCUGGGACCAGAAUCUUAUUUUUUUUUAAAACUCUCAGUGUAACUGUAUCCCGUGACAUUUCAUUUUUUUUAAAUAGUGUAUUUUUU	21.7 ratio
GUACUGCAGCAGCAGGGAAAACUGCAGGAAGCUCUGAUGCAUUAUAAGGAGGCUAUUCGAAUCAGUCCUACAUUUGCUGAUGCCUACUCCAAUAUGGGAAACACUCUAAAGGAGAUGCAG	0.196 ratio
AGAGCCCAGGACGUUGAUGCUACAAAUCCAAAUUACGAAAUUAUGUGUAUGAUCAGAGACUUCAGAGGGAGCUUGGAUUACAGACCCUUAACAACAGCAGAUCCUAUUGAUGAACAUAGG	0.374 ratio
GACCCACAGUGGUCUGAGGAGCAACUCAUUGCUGCAAAAUUCUGUUUUGCUGGCCUUGUUAUAGGGCAGACUGAAGUGGACAUCAUGAGUCAUGCUACACAAGCUAUUUUUGAAAUUCUG	0.169 ratio
GGAAGUACAAUGAUGGAGAUUGAUGGUGAUAAAGGCAAGCAGGGCGGGCCCACCUACUACAUAGACACUAAUGCUCUCCGCGUGCCCAGGGAGAACAUGGAGGCCAUCUCACCACUCAAG	0.597 ratio
CUCAGAGAUGUGGCAUAUCAAUAUGUGAAAAAGGGGGCUCGUAUAUUUUUGGAAGGGAAAGUGGACUAUGGCGAGUACAUGGAUAAAAACAAUGUGAGGCGGCAAGCAACAACAAUCAUA	0.48 ratio
CAGGGCAUUAUUUCUCGAGCUGUUAAACACCUGUUCAAGAGUAUUGAUGAGAAAAAGACCUCAGCGAUUAAAAACGGGCUGCCCCCUCCUGAAUUCAAAGUGAAUGCCCAGUUCCUAGAG	0.287 ratio

Series 3
Target: ABI1, truncated, D143A, DHFR fusion (Arabidopsis thaliana)
Method: DHFR PCA, deep sequencing
Sample: yeast
Setting: methotrexate growth selection, single substitutions
Added: (+)-ABA 1.4 µM
Relative to: wild-type fitted maximum
Direction: higher = stronger binding
Starting sequence: PYL1, truncated, DHFR fusion (Arabidopsis thaliana); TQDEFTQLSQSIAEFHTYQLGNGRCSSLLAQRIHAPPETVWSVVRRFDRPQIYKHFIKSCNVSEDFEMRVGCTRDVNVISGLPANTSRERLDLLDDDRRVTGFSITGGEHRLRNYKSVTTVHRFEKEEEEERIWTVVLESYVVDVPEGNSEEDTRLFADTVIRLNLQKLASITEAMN
Variant	relative binding score [%]
D3L	34.5
R46N	-32.1
T39M	60.9
E109K	20.5
E131Y	44.7
L29Q	8.7
R111G	3.59
E109D	119
N177S	65.9
F5P	24.7
S87E	-1.38
Q51N	3.43
Q31S	-0.343
V145R	-10.7
S104N	3.93
M176L	40.9
D3N	18.6
S26N	-11
V100W	-5.41
T135V	3.52
F124M	73.1
Y53H	20.3
R90Y	0.143
D144S	-12.2

Series 4
Target: Myc proto-oncogene protein, bHLH-zipper, MAX partner unstated (MYC, Homo sapiens, UniProt P01106, residues 368-449)
Sequence of UniProt P01106 (368-449, looked up): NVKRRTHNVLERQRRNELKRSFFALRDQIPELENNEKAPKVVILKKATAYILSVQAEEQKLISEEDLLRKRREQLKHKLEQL
Method: protein-binding microarray
Molecule type: double-stranded DNA, one strand shown
Sample: in vitro
Concentration: not given
Setting: k-mer, scored over probes, only values ≥0.25
Direction: higher = stronger binding
Strand	E-score
CAGACACG	0.384
AACACGCG	0.441
CCACGCGA	0.431
CGTGCTAC	0.412
GACACGAC	0.314
GTGGCCAC	0.404
ACGTGCGG	0.416
CATGTAGC	0.253
GCCATGCA	0.412
CGTGTTGA	0.288
ACCGCGCG	0.348
AGGCCATG	0.314
ACATGCGC	0.439

Series 5
Target: CCNE1, cyclin fold, Cln2 fusion (human)
Method: yeast growth competition, sequencing
Sample: yeast
Setting: strong parent motif
Relative to: not given
Direction: higher = stronger binding
Starting sequence: GMNC docking peptide (human); KNAKRNLSSEFAN
Variant	normalised enrichment score
KNAKTNLSSEFAN [R5T]	0.0723
KRAKRNLSSEFAN [N2R]	1.22
KNAKRNLSSHFAN [E10H]	0.269
KNAKRMLSSEFAN [N6M]	0.169
KNAIRNLSSEFAN [K4I]	1.32
KNAKRNLSSEDAN [F11D]	0.23
KNAKCNLSSEFAN [R5C]	0.0623
KNDKRNLSSEFAN [A3D]	-0.0842
KNAKRNRSSEFAN [L7R]	0.195
KNAKFNLSSEFAN [R5F]	0.014
KNAKRNLSREFAN [S9R]	1.97
KNAKRNLSSLFAN [E10L]	0.0867
KNAKRLLSSEFAN [N6L]	-0.263
KNAKMNLSSEFAN [R5M]	0.163
KNAKRNLSSEFNN [A12N]	1.54
KNAKRNLGSEFAN [S8G]	0.719
KNAKKNLSSEFAN [R5K]	0.287
KNAKRNLSNEFAN [S9N]	1.51
KNAFRNLSSEFAN [K4F]	0.643
KNAKRNLSSEFRN [A12R]	0.717
KNAKRNQSSEFAN [L7Q]	0.201
KNTKRNLSSEFAN [A3T]	0.555
KNAKRNLSSEFDN [A12D]	2.33
KNAKRHLSSEFAN [N6H]	-0.196
KNAKRNLSHEFAN [S9H]	1.73

Excerpt of the above (series 3):
Variant	relative binding score [%]
T39M	60.9
E109K	20.5
E131Y	44.7
L29Q	8.7
R111G	3.59
E109D	119
N177S	65.9
F5P	24.7
S87E	-1.38
Q51N	3.43
Q31S	-0.343
V145R	-10.7
S104N	3.93
M176L	40.9
